Measured values gathered from unrelated publications.
Compare with care: the assays were run in different laboratories. Values joined by “and” are separate records of one study, mostly repeats; a detail may differ. ± gives the spread as reported.
Sequence of UniProt Q9Y2I7 (whole entry, looked up): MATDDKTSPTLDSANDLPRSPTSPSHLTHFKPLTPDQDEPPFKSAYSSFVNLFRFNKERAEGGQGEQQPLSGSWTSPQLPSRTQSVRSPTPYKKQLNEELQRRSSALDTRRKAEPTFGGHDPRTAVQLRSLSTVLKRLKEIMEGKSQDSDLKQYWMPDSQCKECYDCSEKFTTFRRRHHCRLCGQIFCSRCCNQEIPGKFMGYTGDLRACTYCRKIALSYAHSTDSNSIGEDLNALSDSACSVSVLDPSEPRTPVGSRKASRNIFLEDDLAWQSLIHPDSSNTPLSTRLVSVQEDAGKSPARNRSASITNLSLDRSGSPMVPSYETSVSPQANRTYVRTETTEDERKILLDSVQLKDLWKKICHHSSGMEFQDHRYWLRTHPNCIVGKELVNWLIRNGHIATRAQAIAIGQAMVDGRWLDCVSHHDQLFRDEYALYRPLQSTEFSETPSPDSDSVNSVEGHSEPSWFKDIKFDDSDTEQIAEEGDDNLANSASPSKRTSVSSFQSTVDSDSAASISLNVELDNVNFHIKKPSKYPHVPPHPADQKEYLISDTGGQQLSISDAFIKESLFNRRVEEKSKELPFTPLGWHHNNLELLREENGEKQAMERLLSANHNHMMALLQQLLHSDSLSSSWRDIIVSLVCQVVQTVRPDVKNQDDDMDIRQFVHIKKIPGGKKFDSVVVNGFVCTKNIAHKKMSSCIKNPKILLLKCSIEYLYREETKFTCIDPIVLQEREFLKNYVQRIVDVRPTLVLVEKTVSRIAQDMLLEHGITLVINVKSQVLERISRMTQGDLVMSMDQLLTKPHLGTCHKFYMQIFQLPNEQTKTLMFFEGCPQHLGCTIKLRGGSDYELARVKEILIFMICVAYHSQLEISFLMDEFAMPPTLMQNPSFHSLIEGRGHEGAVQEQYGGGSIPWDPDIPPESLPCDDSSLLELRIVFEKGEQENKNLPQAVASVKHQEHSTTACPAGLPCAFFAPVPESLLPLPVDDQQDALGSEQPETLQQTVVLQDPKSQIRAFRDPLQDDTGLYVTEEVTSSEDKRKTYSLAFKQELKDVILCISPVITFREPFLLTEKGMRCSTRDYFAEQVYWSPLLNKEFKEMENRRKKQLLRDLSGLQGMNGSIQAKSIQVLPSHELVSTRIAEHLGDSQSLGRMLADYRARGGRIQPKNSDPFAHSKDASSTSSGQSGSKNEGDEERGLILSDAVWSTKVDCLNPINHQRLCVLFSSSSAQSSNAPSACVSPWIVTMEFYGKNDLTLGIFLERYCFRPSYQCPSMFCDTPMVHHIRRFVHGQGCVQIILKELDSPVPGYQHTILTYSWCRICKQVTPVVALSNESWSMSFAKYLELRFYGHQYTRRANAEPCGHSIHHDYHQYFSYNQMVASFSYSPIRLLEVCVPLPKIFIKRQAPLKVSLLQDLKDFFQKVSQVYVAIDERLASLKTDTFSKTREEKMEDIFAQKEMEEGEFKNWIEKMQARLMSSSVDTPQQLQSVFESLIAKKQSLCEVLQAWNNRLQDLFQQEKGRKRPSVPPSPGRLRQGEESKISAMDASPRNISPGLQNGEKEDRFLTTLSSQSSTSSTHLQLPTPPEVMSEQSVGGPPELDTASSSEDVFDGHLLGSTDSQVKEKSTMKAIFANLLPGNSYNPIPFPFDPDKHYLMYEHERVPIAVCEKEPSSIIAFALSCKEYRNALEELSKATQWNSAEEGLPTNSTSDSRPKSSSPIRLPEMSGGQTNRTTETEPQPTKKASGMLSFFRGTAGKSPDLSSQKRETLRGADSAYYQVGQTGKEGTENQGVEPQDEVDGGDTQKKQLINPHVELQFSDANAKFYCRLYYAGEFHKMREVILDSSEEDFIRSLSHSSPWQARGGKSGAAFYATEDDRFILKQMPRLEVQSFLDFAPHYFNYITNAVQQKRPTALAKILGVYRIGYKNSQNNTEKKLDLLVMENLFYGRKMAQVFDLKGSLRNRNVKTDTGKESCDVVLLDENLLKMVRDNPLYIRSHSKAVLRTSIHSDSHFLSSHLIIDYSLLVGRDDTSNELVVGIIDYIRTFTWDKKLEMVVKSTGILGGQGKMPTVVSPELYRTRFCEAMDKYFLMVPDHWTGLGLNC
Sequence of UniProt Q9P286 (whole entry, looked up): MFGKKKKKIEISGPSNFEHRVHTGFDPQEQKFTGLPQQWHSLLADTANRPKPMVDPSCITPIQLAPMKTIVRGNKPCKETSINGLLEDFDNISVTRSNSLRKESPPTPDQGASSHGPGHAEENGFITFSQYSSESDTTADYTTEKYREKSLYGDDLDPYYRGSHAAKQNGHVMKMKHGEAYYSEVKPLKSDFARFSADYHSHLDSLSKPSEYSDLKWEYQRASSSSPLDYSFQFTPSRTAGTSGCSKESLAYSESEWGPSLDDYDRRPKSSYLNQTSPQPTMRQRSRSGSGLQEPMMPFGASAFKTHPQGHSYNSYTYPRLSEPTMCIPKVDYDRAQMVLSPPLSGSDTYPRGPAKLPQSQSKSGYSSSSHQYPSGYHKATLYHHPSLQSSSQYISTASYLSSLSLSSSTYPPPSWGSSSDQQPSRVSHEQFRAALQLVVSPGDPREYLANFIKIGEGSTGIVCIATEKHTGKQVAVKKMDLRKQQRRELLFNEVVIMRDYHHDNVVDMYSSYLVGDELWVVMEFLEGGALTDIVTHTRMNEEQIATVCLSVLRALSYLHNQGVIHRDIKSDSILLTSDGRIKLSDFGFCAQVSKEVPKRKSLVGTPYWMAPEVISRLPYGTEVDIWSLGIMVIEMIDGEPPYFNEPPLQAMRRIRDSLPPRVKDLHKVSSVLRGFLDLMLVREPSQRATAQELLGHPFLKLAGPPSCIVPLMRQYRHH

CCCCCCCCC=CCCCCCCCCNC(=O)C(N)Cc1ccc(OP(=O)(O)COC(CO)Cn2ccc(N)nc2=O)cc1 (stereo not shown)  selectivity index (varicella-zoster virus; HFF, Ellen; baseline: CC50 over EC50): 50
O=C1NC2(CC2)COc2ncc(F)cc2[C@H]2COCCN2c2ccn3ncc1c3n2  serum urea (Sprague-Dawley rat, female, serum; oral, 5 mg/kg/day, end of treatment, 4-week subacute toxicity): 5.91 ± 1.37 mmol/L
CC(C)(C)C(=O)OCOP(=O)(OCOC(=O)C(C)(C)C)C1CCCN(O)C1=O (stereo not shown)  log TGI (MDA-MB-468): -5.26 log M
CCOC(=O)C1(Cc2ccccc2F)Oc2cc(F)ccc2N(Cc2ccccc2F)C1=O (stereo not shown)  inhibition (Amaranthus retroflexus; fresh weight, greenhouse postemergence; postemergence, 150 g ai/ha, 21 days): 44.6 ± 4.85%
Cc1cc(C(=O)Nc2nc3cccc(C)c3n2[C@H]2CCCCN(C(=O)/C=C/CN(C)C)C2)ccn1  EC50 fold shift (Trypanosoma brucei; cell growth, Alamar Blue; 2T1 overexpressing Tb927.6.4970; baseline: parental 2T1): 0.68 fold and 0.6 fold
COc1ccccc1-c1n[nH]c2nc(N[C@H]3CC[C@H](NS(=O)(=O)CC(C)C)CC3)ncc12  relative abundance (bead binding, competition bead pull-down, refers to: LINJ.06.0370; Leishmania donovani extract; 10 µM; baseline: vehicle): 0.97
CCOC(=O)C1(Cc2cccc(C)c2)Oc2cc(F)ccc2N(Cc2cccc(C)c2)C1=O (stereo not shown)  inhibition (Amaranthus retroflexus; fresh weight, greenhouse postemergence; postemergence, 150 g ai/ha, 21 days): 55.4 ± 6.18%
CN(C)[C@H]1C[C@@]23CC[C@@]4(O2)C(=CC[C@]2(C)[C@@H](c5ccc6ccncc6c5)CC[C@H]24)C=C3[C@@H](O)[C@@H]1O  inhibition (1-phosphatidylinositol 3-phosphate 5-kinase (PIKFYVE, Homo sapiens, UniProt Q9Y2I7); ATP probe labelling, inhibitor, KiNativ profiling; 1 µM): 3.1%
COc1ccccc1-c1n[nH]c2nc(NC3CCN(C(=O)Cc4ccc(F)cc4F)CC3)ncc12  relative abundance (bead binding, competition bead pull-down, refers to: LINJ.36.4380; Leishmania donovani extract; 10 µM; baseline: vehicle): 0.98
CC[C@H](C)CCCCC(=O)N[C@@H](CCN)C(=O)N[C@H](C(=O)N[C@@H](CCN)C(=O)N[C@H]1CCNC(=O)[C@H]([C@@H](C)O)NC(=O)[C@H](CCN)NC(=O)[C@H](CCN)NC(=O)[C@H](CC(C)C)NC(=O)[C@@H](CC(C)C)NC(=O)[C@H](CCN)NC1=O)[C@@H](C)O  MIC fold change (Escherichia coli; daily serial passaging; ATCC 8739; highest sub-MIC, 8 days; baseline: initial MIC): 1.16
CC(C)[C@H]1NC(=O)[C@H](Cc2ccccc2)NC(=O)[C@@H](C(C)C)NC(=O)[C@@H](C)NC(=O)[C@H](C)NC(=O)[C@@H](Cc2c(-c3ccc(-c4ccc5ccccc5c4)cc3)[nH]c3ccccc23)NC(=O)[C@@H](CO)NC1=O  MIC90 (Vibrio vulnificus; broth dilution): > 50 µM
CC[C@H](C)[C@H](NC(=O)[C@H](CCCCN)NC(=O)[C@H](CC(=O)O)NC(=O)[C@H](CC(C)C)NC(=O)[C@@H](NC(=O)[C@H](CC(N)=O)NC(=O)[C@H](CC(C)C)NC(=O)[C@@H](NC(=O)[C@H](Cc1ccccc1)NC(=O)[C@H](CCCCN)NC(=O)[C@H](CCCCN)NC(=O)CNC(=O)[C@H](C)NC(=O)[C@H](CC(N)=O)NC(=O)[C@H](CCCCN)NC(=O)[C@H](Cc1ccccc1)NC(=O)[C@H](CC(N)=O)NC(=O)[C@H](CCC(=O)O)NC(=O)[C@H](Cc1c[nH]c2ccccc12)NC(=O)[C@H](CC(C)C)NC(=O)[C@@H](N)CO)[C@@H](C)CC)[C@@H](C)CC)C(=O)N[C@@H](CCCNC(=N)N)C(=O)N[C@H]1CSSC[C@@H](C(=O)N[C@@H](CCCNC(=N)N)C(=O)N[C@H](C(=O)O)[C@@H](C)O)NC(=O)CNC(=O)CNC(=O)[C@H](C)NC(=O)[C@H](C(C)C)NC(=O)[C@H](CCCNC(=N)N)NC1=O  geometric mean MIC (all tested microorganisms): 24.7 µM
FC(F)(F)c1cccc(CNc2nc(NC3CCN(Cc4ccccc4)CC3)c3nc[nH]c3n2)c1  mRNA fold change (Cryptococcus neoformans; RNA-seq, refers to: CNAG_05384; 48 µg/mL, 3 h; baseline: untreated): 1.01
CS(C)(=O)=Nc1ccc(-c2ccc(-c3nc4cc(O[C@@H]5CO[C@H]6[C@@H]5OC[C@H]6O)[nH]c4cc3F)cc2)cc1  inhibition (Serine/threonine-protein kinase PAK 5 (PAK5, Homo sapiens, UniProt Q9P286); enzyme activity, inhibitor; 10 µM): 9%
CCN(CC)CCO.O=C(O)C(Cl)Cl  inhibition (Amaranthus retroflexus; herbicidal activity; 15 mg/mL, 21 days, post-emergence greenhouse): 46%
C[N+]1=C2C(c3ccc([N+](=O)[O-])cc3)=[N+]([O-])c3ccccc3N2CCC1  MIC50 (Bacteroides fragilis; microbial growth): 0.5 µg/mL
C[C@@H]1NC(=O)[C@H](C)NC(=O)[C@@H](NC(=O)[C@@H]2CCCN2C(=O)[C@H](CC(N)=O)NC(=O)[C@H](Cc2ccc(O)cc2)NC(=O)[C@@H](N)CCCCN)CSC(=O)[C@H](Cc2ccccc2)NC(=O)[C@H](Cc2ccc(O)cc2)NC1=O  biofilm dispersal (Staphylococcus epidermidis; safranin staining; RP62A; 10 µM, 37 °C; baseline: DMSO control): 11%
[O-][N+]1=C(c2ccc(Cl)cc2)C2=NCCCN2c2ccccc21  MIC90 (Bacteroides fragilis): 2 µg/mL
COc1ccc(Cn2c3cc(=O)n(Cc4cccc(Cl)n4)c(C)c3c(=O)n2-c2ccccn2)cc1  normalized viral replication (human respiratory syncytial virus; recombinant reporter virus; concentration not given, scale 0 to 100, together with: adenosine 11.1 µM): 0

For quick reference, copied from above:
CCCCCCCCC=CCCCCCCCCNC(=O)C(N)Cc1ccc(OP(=O)(O)COC(CO)Cn2ccc(N)nc2=O)cc1 (stereo not shown)  selectivity index (varicella-zoster virus; HFF, Ellen; baseline: CC50 over EC50): 50
CCOC(=O)C1(Cc2cccc(C)c2)Oc2cc(F)ccc2N(Cc2cccc(C)c2)C1=O (stereo not shown)  inhibition (Amaranthus retroflexus; fresh weight, greenhouse postemergence; postemergence, 150 g ai/ha, 21 days): 55.4 ± 6.18%
COc1ccc(Cn2c3cc(=O)n(Cc4cccc(Cl)n4)c(C)c3c(=O)n2-c2ccccn2)cc1  normalized viral replication (human respiratory syncytial virus; recombinant reporter virus; concentration not given, scale 0 to 100, together with: adenosine 11.1 µM): 0
